Values quoted from earlier work as cited in several papers.
Lines come from different studies, so protocols differ. ± gives the spread as reported. Converted amounts (≈) assume the structure as drawn.

CC1(C)C(=O)N(c2ccc(C#N)c(C(F)(F)F)c2)C(=S)N1c1ccc(C(N)=O)c(F)c1 — activity (human, metastatic castration-resistant prostate cancer; dose not given): active
F[P-](F)(F)(F)(F)F.NCCN.[Cl][Ru+].c1ccc(-c2ccccc2)cc1 — tumour growth inhibition (mouse breast cancer model, primary tumour; 7.5 mg/kg/day): 30%
CC[C@@H]1CN2CCc3c([nH]c4cccc(OC)c34)[C@@H]2C[C@@H]1/C(=C\OC)C(=O)OC — IC50 (competitive indirect ELISA; urine): 1.2 ng/mL (≈ 3.01 nM)
CN(C)c1ccc(/C=C/C(=O)c2ccc(OC(=O)N3CCCC3)cc2O)cc1 — antioxidant activity (concentration not given; baseline: Trolox): 2.83 fold
Cc1ccc(C(C)C)cc1.F[P-](F)(F)(F)(F)F.[Cl][Ru-]1[NH2+]CC[NH2+]1 — DNA unwinding angle (calf thymus DNA; covalent adducts): 7 °
O=C(OCC[18F])C1C2CCC(CC1c1ccc(/C=C\I)cc1)N2 (stereo not shown) — time to peak uptake (SERT; HRRT PET; awake rhesus monkey, cerebellum): 35 min
O=[N+]([O-])c1ccc(-c2cc(C3CC4CCC3N4)cnc2F)cc1 (racemic) — ED50 (spontaneous activity; mouse): 0.22 mg/kg
O=C1C2C=CC1C=C2 — rate constant (CO loss; 300 K): 420000 s⁻¹
O=C1N[C@@H](Cc2ccccc2)C(=O)N2CCC[C@@H]2C(=O)N[C@@H](Cc2ccccc2)C(=O)N[C@H]1Cc1c[nH]c2ccccc12 — time to peak antinociception (C57BL/6J mouse; intracerebroventricular, dose not given): 30 min
COC[C@@H](NC(C)=O)C(=O)NCc1ccc(OCc2cccc(F)c2)cc1 — ED50 (mouse, MES seizure; intraperitoneal, time of peak effect): 13 mg/kg
C[C@]12CC[C@@H](O)C[C@@H]1CC[C@@H]1[C@@H]2C(=O)C[C@]2(C)C(C#N)=CC[C@@H]12 — EC50 (loss of righting reflex; tadpole): 1040 ± 140 nM
COC[C@@H](NC(C)=O)C(=O)NCc1ccc(OCc2ccccc2)cc1 — ED50 (mouse, MES seizure; intraperitoneal, time of peak effect): 5.8 mg/kg
CC[C@H](C)[C@H](NC(=O)CNC(=O)[C@H](CC(=O)O)NC(=O)[C@H](CCCNC(=N)N)NC(=O)[C@@H](NC(=O)[C@H](CC(N)=O)NC(=O)[C@H](CCC(N)=O)NC(=O)CNC(=O)[C@@H](NC(=O)[C@H](CCCCN)NC(=O)[C@H](CCC(=O)O)NC(=O)[C@@H](NC(=O)[C@H](CCCCN)NC(=O)[C@H](CCCCN)NC(=O)[C@H](Cc1ccccc1)NC(=O)[C@H](CC(C)C)NC(=O)[C@H](CCCCN)NC(=O)[C@H](Cc1c[nH]c2ccccc12)NC(=O)[C@@H](N)CCCCN)[C@@H](C)CC)C(C)C)[C@@H](C)CC)C(=O)N[C@H](C(=O)N[C@@H](CCCCN)C(=O)N[C@@H](C)C(=O)NCC(=O)N1CCC[C@H]1C(=O)N[C@@H](C)C(=O)N[C@H](C(=O)N[C@@H](C)C(=O)N[C@H](C(=O)N[C@H](C(=O)NCC(=O)N[C@@H](CCC(N)=O)C(=O)N[C@@H](C)C(=O)N[C@H](C(=O)N[C@@H](CCC(N)=O)C(=O)N[C@H](C(=O)N[C@@H](C)C(=O)N[C@@H](CCCCN)C(N)=O)[C@@H](C)CC)[C@@H](C)O)C(C)C)C(C)C)C(C)C)[C@@H](C)CC — koff (membrane binding; POPC bilayers; room temperature): 300 s⁻¹
